Assay results pooled from the literature.
Each line is one published result; not all experiments were run side by side. Several values in a cell are separate wells, animals, samples, runs or records. ± marks the error that the study gave.

SMILES | cell line | test | system | setting | how to read | measurement | result
C=C1C(=O)O[C@H]2[C@H]1CCC(C)=C1CC[C@@](C)(O)[C@@H]12 | iPSC-derived cardiomyocytes | concentration-response curve, refers to: MyBP-C protein level | – | – | – | EC50 | > 50 µM
Cn1cc(-c2ccc(-c3cncc(Cl)c3N3CCC4(CCNC4=O)CC3)cc2)cn1 | COLO 205 | gene expression, microarray, refers to: P4HA2 mRNA | – | concentration not given, 6 h | relative to: untreated cells | log2 fold change | 3.86
CCCC(=O)O[C@H]1C[C@H]2C[C@@H](O[C@@H]3O[C@@H](C)[C@@H](O)[C@@H](O)[C@H]3OC)C[C@@H](C[C@@H](C)/C=C/C=C\C[C@@H]3O[C@@H](C[C@@H]3C)[C@@H](O)C[C@H]3C[C@@]1(O)C(=O)O3)O2 | NCI-H292 | Seahorse XF24 | – | 1 µM | relative to: control | oxygen consumption rate | 25 to 30%
O=C(/C=C/C=C/C=C/C1CCCCC1)NC1=C[C@@](O)(/C=C/C=C/C=C/C(=O)NC2=C(O)CCC2=O)[C@@H]2O[C@@H]2C1=O | HSC-4 | cell growth, CellTiter-Glo | – | 78 h | – | GI50 | 13.3 µM
Clc1ccc(C2(c3ccc(-c4cn[nH]c4)cc3)CCNCC2)cc1 | CLL cells, patient | flow cytometry, MFI | human | 10 µM, 24 h | – | pERK level | 321
CCCCCCCCOC(=O)C(=O)CCC(=O)O | OCI-Ly1 | – | – | 0.1 µM, 120 h | – | viability | 124%
CCn1cc(-c2cc(Cn3ccnc3)cc3c2CCN([C@H](c2cc(OC)ccn2)C2CC2)C3=O)c(C(F)(F)F)n1 | SCC-15 | cell growth, inhibitor | – | 120 h | – | EC50 | > 30 µM
O=C(COc1cccc2c1C(=O)N(C1CCC(=O)NC1=O)C2=O)NCCOCCOCCNS(=O)(=O)Nc1cccc(-c2cn3cc(C(=O)NC4CCC4)ccc3n2)c1 (stereo not drawn) | MV4-11 | TMT proteomics, refers to: RPLP2 | whole proteome | 10 µM, 4 h | relative to: DMSO | log2 fold change | 0.006
CC(C)N(CCCNC(=O)Nc1ccc(C(C)(C)C)cc1)C[C@H]1O[C@@H](n2cc(Br)c3c(N)ncnc32)[C@H](O)[C@@H]1O | OCI-Ly1 | – | – | 0.5 µM, 120 h | – | viability | 118%
CC(C)C[C@H](NP(=O)(O)O[C@@H]1O[C@@H](C)[C@H](O)[C@@H](O)[C@H]1O)C(=O)N[C@@H](Cc1c[nH]c2ccccc12)C(=O)O | SH-SY5Y BACE1-overexpressing | ELISA | supernatant | up to 1 µM, 72 h | relative to: vehicle | Aβ level | no effect
Cc1nn(-c2nc3ccc(Cl)c(Cl)c3[nH]2)c(O)c1C1OC(=O)c2ccccc21 (stereo not drawn) | RAW-ISG | western blot | – | 10 µM, added: HT-DNA | relative to: vehicle | phospho-IRF3/IRF3 ratio | 0.455 and 0.471 and 0.731
CCn1c(=O)/c(=C2\Sc3cc(Cl)ccc3N2C)s/c1=C\c1scc[n+]1Cc1ccccc1 | iPSC-derived cardiomyocytes | concentration-response curve, refers to: MyBP-C protein level | – | – | – | EC50 | 22.6 µM
CC(=O)c1nn(-c2ccc(Cl)cc2)/c(=N/N=C(\C)c2ccc(NC(=O)c3ccc(C)cc3)cc2)s1 | HepG2 | – | – | 1.25 µM | – | toxicity | 82%
CC(C(=O)Nc1cccc(/N=C/c2c(O)ccc3ccccc23)c1)c1ccccc1 (stereo not drawn) | OCI-Ly1 | – | – | 0.1 µM, 120 h | – | viability | 199%
Cn1cc(Nc2nccc(-c3ccc4c(c3)CN(C3COC3)CC[C@H]4NC(=O)c3cn(C(C)(C)C)nn3)n2)cn1 | mouse splenic B cells | refers to: Necroptosis signalling pathway | – | 30 mg/kg, IgD-activated in vivo | relative to: vehicle, direction not given | pathway activation z-score | -0.365
Clc1ccc(-c2csc(NN=C3CCCC3)n2)cc1 | OCI-Ly1 | – | – | 0.5 µM, 120 h | – | viability | 111%
Cc1nc2ccc(NCc3ccc(C(F)(F)F)cc3)cc2[nH]1 | sample A patient iPSC-derived NPCs | MTS | – | 10 µM, 24 h | relative to: vehicle | viability | 124 ± 18.1%
O=C(O)CCNc1cc(N2CCc3ccccc3CC2)nc(-c2cccnc2)n1 | OCI-Ly1 | – | – | 1 µM, 120 h | – | viability | 111%
Cn1c(Nc2nc3ccc(C(F)(F)F)cc3s2)nc2cc(C(=O)NCCOCCO)ccc21 | SH-SY5Y | RNA-seq, refers to: SLC12A8 mRNA | – | 5 µM, 5 h | relative to: untreated cells | fold change | 3.11
C=C1C(=O)O[C@@H](CCC)[C@@H]1C(=O)O (racemic) | OCI-Ly1 | – | – | 0.5 µM, 120 h | – | viability | 173%
Cc1ccc(S(=O)(=O)Oc2ccc(NC(=O)c3cnccn3)cc2)cc1 | MCF7 transfected with human P2X7R | – | – | 10 µM, added: Bz-ATP 100 µM | relative to: Bz-ATP alone | inhibition of proliferation | 19%
